Assay results gathered from unrelated publications.
Every numbered part comes from another study and shows a few of its results, in no order.
UniProt Q9UM73, sequence (whole entry, unmodified, looked up): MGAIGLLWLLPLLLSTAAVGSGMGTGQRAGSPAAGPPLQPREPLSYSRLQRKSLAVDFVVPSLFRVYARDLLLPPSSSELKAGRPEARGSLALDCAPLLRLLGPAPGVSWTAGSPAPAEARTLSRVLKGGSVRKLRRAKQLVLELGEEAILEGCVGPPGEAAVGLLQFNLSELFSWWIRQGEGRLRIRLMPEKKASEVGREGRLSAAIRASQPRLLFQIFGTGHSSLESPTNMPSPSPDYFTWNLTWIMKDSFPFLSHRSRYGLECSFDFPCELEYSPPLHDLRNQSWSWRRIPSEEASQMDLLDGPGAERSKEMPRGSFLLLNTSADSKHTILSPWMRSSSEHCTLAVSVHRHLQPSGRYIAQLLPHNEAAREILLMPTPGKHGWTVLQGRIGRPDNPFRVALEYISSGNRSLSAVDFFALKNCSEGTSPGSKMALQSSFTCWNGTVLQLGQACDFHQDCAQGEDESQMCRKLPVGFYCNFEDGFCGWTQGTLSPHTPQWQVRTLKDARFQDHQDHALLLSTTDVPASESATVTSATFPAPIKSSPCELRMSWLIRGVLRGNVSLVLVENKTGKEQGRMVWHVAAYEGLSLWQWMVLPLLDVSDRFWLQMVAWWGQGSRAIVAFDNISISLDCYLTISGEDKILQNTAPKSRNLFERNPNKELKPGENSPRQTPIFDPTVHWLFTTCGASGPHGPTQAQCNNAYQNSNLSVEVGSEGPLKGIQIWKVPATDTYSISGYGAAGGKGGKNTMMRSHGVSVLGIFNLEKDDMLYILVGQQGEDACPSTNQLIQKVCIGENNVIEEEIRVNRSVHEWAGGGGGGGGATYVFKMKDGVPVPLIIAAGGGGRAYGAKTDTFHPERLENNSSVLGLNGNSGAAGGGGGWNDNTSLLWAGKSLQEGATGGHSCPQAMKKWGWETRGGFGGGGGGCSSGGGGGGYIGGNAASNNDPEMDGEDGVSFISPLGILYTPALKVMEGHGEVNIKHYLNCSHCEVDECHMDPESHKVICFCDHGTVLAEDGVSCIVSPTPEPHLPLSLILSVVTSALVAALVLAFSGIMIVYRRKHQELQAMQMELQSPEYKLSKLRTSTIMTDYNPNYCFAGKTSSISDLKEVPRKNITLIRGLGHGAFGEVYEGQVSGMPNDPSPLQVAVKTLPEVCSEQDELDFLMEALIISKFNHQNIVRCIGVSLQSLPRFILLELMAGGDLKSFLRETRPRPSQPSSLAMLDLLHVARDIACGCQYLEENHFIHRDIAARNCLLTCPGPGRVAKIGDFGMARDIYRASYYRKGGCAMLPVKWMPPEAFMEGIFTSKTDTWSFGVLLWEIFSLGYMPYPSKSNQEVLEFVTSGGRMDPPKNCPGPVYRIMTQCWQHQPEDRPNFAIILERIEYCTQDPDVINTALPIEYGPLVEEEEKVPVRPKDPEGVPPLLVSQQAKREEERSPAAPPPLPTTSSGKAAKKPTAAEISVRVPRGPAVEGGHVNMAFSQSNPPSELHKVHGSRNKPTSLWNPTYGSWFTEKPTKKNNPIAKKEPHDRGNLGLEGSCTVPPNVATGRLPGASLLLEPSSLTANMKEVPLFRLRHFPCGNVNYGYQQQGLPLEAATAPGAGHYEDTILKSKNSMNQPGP
UniProt Q8TD08, sequence (whole entry, looked up): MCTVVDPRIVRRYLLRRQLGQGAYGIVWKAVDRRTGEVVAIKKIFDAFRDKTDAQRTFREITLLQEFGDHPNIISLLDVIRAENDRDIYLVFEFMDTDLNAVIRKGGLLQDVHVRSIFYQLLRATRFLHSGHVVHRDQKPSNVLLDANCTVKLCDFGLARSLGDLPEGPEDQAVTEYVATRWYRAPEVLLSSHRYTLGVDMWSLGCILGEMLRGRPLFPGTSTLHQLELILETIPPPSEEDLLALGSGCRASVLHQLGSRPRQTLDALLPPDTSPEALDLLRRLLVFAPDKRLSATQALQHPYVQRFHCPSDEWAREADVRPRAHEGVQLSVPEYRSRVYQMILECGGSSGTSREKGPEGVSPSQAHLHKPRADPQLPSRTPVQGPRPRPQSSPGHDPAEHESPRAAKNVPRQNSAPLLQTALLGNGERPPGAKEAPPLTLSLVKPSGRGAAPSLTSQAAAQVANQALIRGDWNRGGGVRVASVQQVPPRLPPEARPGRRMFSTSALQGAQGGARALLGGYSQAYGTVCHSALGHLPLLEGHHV
UniProt Q9H0K1, sequence (whole entry, looked up): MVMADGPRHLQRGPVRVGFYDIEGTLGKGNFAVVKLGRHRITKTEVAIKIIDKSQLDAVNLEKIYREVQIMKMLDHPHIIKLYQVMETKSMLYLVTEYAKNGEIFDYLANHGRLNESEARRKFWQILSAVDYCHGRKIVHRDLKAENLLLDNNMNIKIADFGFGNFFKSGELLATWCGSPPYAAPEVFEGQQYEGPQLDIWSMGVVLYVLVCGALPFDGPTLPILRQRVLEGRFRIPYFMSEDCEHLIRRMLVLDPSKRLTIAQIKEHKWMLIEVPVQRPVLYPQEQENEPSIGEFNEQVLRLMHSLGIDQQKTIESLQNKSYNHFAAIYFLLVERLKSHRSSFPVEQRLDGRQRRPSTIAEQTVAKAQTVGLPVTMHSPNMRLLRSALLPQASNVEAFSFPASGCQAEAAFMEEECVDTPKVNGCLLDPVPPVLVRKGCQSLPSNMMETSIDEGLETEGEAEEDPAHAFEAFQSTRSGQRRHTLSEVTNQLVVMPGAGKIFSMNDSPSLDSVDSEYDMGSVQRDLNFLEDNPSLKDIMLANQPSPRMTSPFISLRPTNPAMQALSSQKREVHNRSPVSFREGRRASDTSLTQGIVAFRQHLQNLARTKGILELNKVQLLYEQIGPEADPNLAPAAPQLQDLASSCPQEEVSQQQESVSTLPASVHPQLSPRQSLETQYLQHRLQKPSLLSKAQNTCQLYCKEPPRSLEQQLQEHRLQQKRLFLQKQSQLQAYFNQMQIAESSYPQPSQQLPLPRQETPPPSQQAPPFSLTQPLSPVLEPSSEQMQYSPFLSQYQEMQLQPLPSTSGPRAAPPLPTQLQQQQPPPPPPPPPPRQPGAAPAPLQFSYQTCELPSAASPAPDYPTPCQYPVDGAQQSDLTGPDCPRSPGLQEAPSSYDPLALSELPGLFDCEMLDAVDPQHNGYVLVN
UniProt Q00535, sequence (whole entry, looked up): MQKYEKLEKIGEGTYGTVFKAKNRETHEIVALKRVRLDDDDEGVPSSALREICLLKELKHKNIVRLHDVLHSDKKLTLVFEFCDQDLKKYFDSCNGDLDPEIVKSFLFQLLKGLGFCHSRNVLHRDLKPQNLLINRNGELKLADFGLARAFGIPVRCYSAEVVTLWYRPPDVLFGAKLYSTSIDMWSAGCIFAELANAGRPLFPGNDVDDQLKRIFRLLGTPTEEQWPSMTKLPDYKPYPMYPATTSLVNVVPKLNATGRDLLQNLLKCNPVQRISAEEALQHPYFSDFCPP

Set 1
SMILES: CC(C)[C@H](CO)Nc1nc(Nc2cccc(Cl)c2)c2ncn(C(C)C)c2n1
Effect on: enzyme activity
Action: inhibitor
Concentration: 0.5 µM
Relative to: control
| target | remaining activity [%] |
| --- | --- |
| EPHB3 (Homo sapiens, UniProt P54753) | 102 |
| CAMKK1 (Homo sapiens, UniProt Q8N5S9) | 101 |
| BRSK2 (Homo sapiens, UniProt Q8IWQ3) | 97.8 |
| FES (Homo sapiens, UniProt P07332) | 95.9 |
| JAK1 (Homo sapiens, UniProt P23458) | 108 |
| ACVRL1 (Homo sapiens, UniProt P37023) | 96.7 |
| EPHA2 (Homo sapiens, UniProt P29317) | 89.5 |
| SIK2 (Homo sapiens, UniProt Q9H0K1) | 92.2 |
| ERBB2 (Homo sapiens, UniProt P04626) | 97.1 |
| JAK2 (Homo sapiens, UniProt O60674) | 97.7 |
| PAK4 (Homo sapiens, UniProt O96013) | 99.5 |
| CSNK1E (Homo sapiens, UniProt P49674) | 87.3 |
| RPS6KA3 (Homo sapiens, UniProt P51812) | 86.3 |
| Cyclin-dependent kinase 5, with p35 (CDK5, Homo sapiens, UniProt Q00535) | 2.61 |
| PIM1 (Homo sapiens, UniProt P11309) | 104 |
| MUSK (Homo sapiens, UniProt O15146) | 56.8 |
| TEC (Homo sapiens, UniProt P42680) | 127 |
| CAMK1 (Homo sapiens, UniProt Q14012) | 110 |
| RPS6KB2 (Homo sapiens, UniProt Q9UBS0) | 101 |

Set 2
Target: Diamine acetyltransferase 1 (Homo sapiens, UniProt P21673)
Action: inhibitor
Concentration: 10 µM
Relative to: control
Residues (P21673 1-171): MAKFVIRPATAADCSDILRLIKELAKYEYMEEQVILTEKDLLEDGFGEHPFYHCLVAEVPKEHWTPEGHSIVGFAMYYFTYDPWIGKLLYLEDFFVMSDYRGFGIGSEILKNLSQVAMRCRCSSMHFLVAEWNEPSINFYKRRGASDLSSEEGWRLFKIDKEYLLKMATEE
| SMILES | remaining activity [%] |
| --- | --- |
| CC(C)=CCOc1c2ccoc2cc2oc(=O)ccc12 | 118 |
| Cc1c(C)c2c(c(C)c1O)CC[C@@](C)(CCC[C@H](C)CCC[C@H](C)CCCC(C)C)O2 | 99.1 |
| O=c1cc(-c2ccc(O)cc2)oc2cc(O)c([C@@H]3O[C@H](CO)[C@@H](O)[C@H](O)[C@H]3O)c(O)c12 | 114 |
| O=c1c(O)c(-c2ccc(O)cc2)oc2cc(O)cc(O)c12 | 88.6 |
| CCCCC/C=C/C=C/C(=O)NCC(C)C | 114 |
| O=C(OC[C@H]1O[C@@H](OC(=O)c2cc(O)c(O)c(OC(=O)c3cc(O)c(O)c(O)c3)c2)[C@H](OC(=O)c2cc(O)c(O)c(OC(=O)c3cc(O)c(O)c(O)c3)c2)[C@@H](OC(=O)c2cc(O)c(O)c(OC(=O)c3cc(O)c(O)c(O)c3)c2)[C@@H]1OC(=O)c1cc(O)c(O)c(OC(=O)c2cc(O)c(O)c(O)c2)c1)c1cc(O)c(O)c(OC(=O)c2cc(O)c(O)c(O)c2)c1 | 103 |
| CC(=O)CCC=C(C)C | 103 |
| CC(=O)CC/C=C(\C)CC/C=C(\C)CCC=C(C)C | 103 |
| O=C(O)c1cccc(O)c1 | 84.5 |
| CCCCCCCCCCCCCCCCCCCC(=O)OC | 111 |
| O=c1cc(-c2ccc(O)c(O)c2)oc2cc(O)ccc12 | 92.2 |
| CC(=O)O[C@@H](C[C@@H](C)C1=C2C[C@H](O)[C@H]3[C@@]4(C)CCC(=O)C(C)(C)[C@@H]4CC[C@]3(C)[C@@]2(C)CC1)[C@H]1OC1(C)C | 96.5 |
| COc1cc(/C=C/C(=O)O)ccc1O | 73.7 |

Set 3
Target: DDB1- and CUL4-associated factor 1 (DCAF1, Homo sapiens, UniProt Q9Y4B6)
UniProt Q9Y4B6, sequence (whole entry, looked up): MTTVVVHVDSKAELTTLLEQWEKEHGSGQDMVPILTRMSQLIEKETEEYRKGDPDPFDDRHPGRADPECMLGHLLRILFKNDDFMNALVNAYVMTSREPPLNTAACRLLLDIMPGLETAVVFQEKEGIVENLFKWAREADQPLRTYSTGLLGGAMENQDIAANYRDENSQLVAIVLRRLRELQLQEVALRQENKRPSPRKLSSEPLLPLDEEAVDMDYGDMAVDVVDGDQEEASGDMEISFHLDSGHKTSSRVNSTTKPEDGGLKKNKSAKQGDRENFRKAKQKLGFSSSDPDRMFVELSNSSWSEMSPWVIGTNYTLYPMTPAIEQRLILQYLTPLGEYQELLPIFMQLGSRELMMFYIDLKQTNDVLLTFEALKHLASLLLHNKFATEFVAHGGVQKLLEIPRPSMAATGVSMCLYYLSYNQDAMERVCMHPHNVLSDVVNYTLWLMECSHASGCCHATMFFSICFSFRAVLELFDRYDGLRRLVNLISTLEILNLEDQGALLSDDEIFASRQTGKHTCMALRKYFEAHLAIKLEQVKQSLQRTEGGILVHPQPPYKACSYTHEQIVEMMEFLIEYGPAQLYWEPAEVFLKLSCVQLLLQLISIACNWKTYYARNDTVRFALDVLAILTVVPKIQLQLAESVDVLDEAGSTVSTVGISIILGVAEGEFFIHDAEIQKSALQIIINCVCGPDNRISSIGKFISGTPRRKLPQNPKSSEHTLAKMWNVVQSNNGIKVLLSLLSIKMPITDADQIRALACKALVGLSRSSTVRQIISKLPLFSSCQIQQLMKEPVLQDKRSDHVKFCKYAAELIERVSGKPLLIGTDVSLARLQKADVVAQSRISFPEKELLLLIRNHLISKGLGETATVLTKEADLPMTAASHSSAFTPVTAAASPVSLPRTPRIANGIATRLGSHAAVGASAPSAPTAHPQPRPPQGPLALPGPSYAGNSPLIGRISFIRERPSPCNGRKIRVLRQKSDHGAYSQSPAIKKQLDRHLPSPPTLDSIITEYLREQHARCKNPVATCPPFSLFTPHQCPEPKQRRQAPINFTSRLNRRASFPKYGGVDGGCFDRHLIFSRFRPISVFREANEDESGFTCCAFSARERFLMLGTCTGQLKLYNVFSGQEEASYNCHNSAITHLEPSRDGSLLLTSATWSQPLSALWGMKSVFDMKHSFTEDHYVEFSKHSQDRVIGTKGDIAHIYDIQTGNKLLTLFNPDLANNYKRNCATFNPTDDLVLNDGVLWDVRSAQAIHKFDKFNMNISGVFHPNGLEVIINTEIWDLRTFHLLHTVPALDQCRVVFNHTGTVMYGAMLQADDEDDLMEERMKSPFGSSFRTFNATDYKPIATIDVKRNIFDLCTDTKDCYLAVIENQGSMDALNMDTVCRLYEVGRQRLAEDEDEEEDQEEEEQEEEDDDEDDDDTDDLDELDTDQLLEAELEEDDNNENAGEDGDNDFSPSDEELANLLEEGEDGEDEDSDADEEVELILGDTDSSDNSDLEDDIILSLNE
Method: SPR
| Compound | dissociation rate constant [s⁻¹] |
| --- | --- |
| C[C@@H]1CN(c2ccc(-c3cc(C(=O)NCCOCCOCCOCCOCCNC(=O)Cn4cc(-c5[nH]cc(C(=O)N[C@@H](CC(N)=O)c6ccc(F)c(Cl)c6)c5-c5ccc(Cl)cc5F)cn4)ccc3F)cc2NC(=O)c2c[nH]c(=O)cc2C(F)(F)F)C[C@H](C)N1C | 0.0069 |
| C[C@@H]1CN(c2ccc(-c3cc(C(=O)NCCCNC(=O)/C=C/c4[nH]cc(C(=O)N[C@@H](CC(N)=O)c5ccc(F)c(Cl)c5)c4-c4ccc(Cl)cc4F)ccc3F)cc2NC(=O)c2c[nH]c(=O)cc2C(F)(F)F)C[C@H](C)N1C | 0.0006 |
| C[C@@H]1CN(c2ccc(-c3cc(C(=O)NCCOCCOCCOCCOCCOCCOCCNC(=O)/C=C/c4[nH]cc(C(=O)N[C@@H](CC(N)=O)c5ccc(F)c(Cl)c5)c4-c4ccc(Cl)cc4F)ccc3F)cc2NC(=O)c2ccc(F)cc2C(F)(F)F)C[C@H](C)N1C | 0.0123 |

Set 4
SMILES: CCC(=O)N[C@H]1CC[C@@H](C(=O)N(C)c2ccc(-c3nc4ccccc4o3)cc2)C1
Concentration: 1 µM
| target | effect on | method | remaining binding |
| --- | --- | --- | --- |
| MAPK15 (Homo sapiens, UniProt Q8TD08) | cell-free assay | competition with immobilised ligand | 100% |
| MAPKAPK5 (Homo sapiens, UniProt Q8IW41) | cell-free assay | competition with immobilised ligand | 73% |
| EGFR (Homo sapiens, UniProt P00533, L858R) | cell-free assay | competition with immobilised ligand | 97% |
| CDK2 (Homo sapiens, UniProt P24941) | cell-free assay | competition with immobilised ligand | 100% |
| ALK (Homo sapiens, UniProt Q9UM73, C1156Y) | cell-free assay | competition with immobilised ligand | 100% |
| COQ8A (Homo sapiens, UniProt Q8NI60) | cell-free assay | competition with immobilised ligand | 100% |
| MATK (Homo sapiens, UniProt P42679) | cell-free assay | competition with immobilised ligand | 100% |
| CDK19 (Homo sapiens, UniProt Q9BWU1) |  | competition binding | 100% |
| MAP3K13 (Homo sapiens, UniProt O43283) | cell-free assay | competition with immobilised ligand | 87% |
| WNK2 (Homo sapiens, UniProt Q9Y3S1) | cell-free assay | competition with immobilised ligand | 74% |
| ALK (Homo sapiens, UniProt Q9UM73) | cell-free assay | competition with immobilised ligand | 86% |

A few entries again (set 4):
| target | effect on | method | remaining binding |
| --- | --- | --- | --- |
| EGFR (Homo sapiens, UniProt P00533, L858R) | cell-free assay | competition with immobilised ligand | 97% |
| CDK2 (Homo sapiens, UniProt P24941) | cell-free assay | competition with immobilised ligand | 100% |
| ALK (Homo sapiens, UniProt Q9UM73, C1156Y) | cell-free assay | competition with immobilised ligand | 100% |
| COQ8A (Homo sapiens, UniProt Q8NI60) | cell-free assay | competition with immobilised ligand | 100% |
| MATK (Homo sapiens, UniProt P42679) | cell-free assay | competition with immobilised ligand | 100% |
